Measured values from different studies.
Numbers after ± are the reported error.

C[C@@H]1N=C(c2ccccc2F)c2cc(Br)ccc2NC1=O  concentration (male Wistar rat, plasma; intraperitoneal, 2 mg/kg, 20 min): 819 nM
CN(C)CCc1c[nH]c2ccccc12  hepatocyte CLint (metabolic stability; human, hepatocytes; 3.1 µM): 13.2 µL/min/10⁶ cells
NC(=O)OC[C@H](N)Cc1ccccc1  Tmax (male Swiss mouse, brain; oral, 10 mg/kg): 0.5 h
C[C@H]1CNCCc2ccc(Cl)cc21  half-life (male Sprague-Dawley rat, plasma; subcutaneous, 3 mg/kg, single dose): 1.83 h
COc1ccsc1CNCC[C@@]1(c2ccccn2)CCOC2(CCCC2)C1  exposure increase (human, end-stage renal disease; intravenous, dose not given; relative to: normal renal function): ~20%
CNC(=O)O/N=C/C(C)(C)[S+](C)[O-] (centres unmarked)  percent metabolized (human liver mitochondrial preparation; 1 µM, 30 min, 0.5 mg/mL protein): 5.58%
C#Cc1ccc2c(c1)C(c1ccccn1)=NCc1c(-c3cnco3)ncn1-2.Cl  solubility (shake flask; HCl buffer; 24 h, pH 1, 25 °C): 13.1 mg/mL
Cc1ncc2n1-c1ccc(Cl)cc1C(c1ccccc1F)=NC2  AUC(0-inf) (healthy men, plasma; oral, 7.5 mg, day 19, LS mean, added: 7 days post amenamevir): 124 ng·h/mL
C=C1C[C@@H]2[C@H](CC[C@]3(C)C(=O)CC[C@@H]23)[C@@]2(C)C=CC(=O)C=C12  median plasma concentration (LC-MS/MS; postmenopausal breast cancer women, plasma; oral, 25 mg/day, 2 h, prior chemotherapy): 6.9 ng/mL
CN1CC[C@@]23CCCC[C@@H]2[C@@H]1Cc1ccc(O)cc13  MRT(0-t) (Wistar rat, both sexes, plasma; oral, 5 mg/kg DEM, DEM 2 h after pretreatment, added: TCE 100 mg/kg single pretreatment): 4.86 ± 0.95 h
CCCCCCCCCCC(=O)O[C@H]1CC[C@H]2[C@@H]3CCC4=CC(=O)CC[C@]4(C)[C@H]3CC[C@]12C  testosterone change (human blood, NaF/EDTA tubes; 600 ng/mL, 60 min; relative to: no compound added): 59.2%
Cc1ncc(OC[C@@]2(c3cccc(F)c3)C[C@H]2C(=O)Nc2ccc(F)cn2)c(C)n1  fraction absorbed (human, male; oral, 10 mg): 0.87
COc1ccc2c(c1)[C@]13CCCC[C@@H]1[C@H](C2)N(C)CC3  MRT(0-t) (Wistar rat, both sexes, plasma; oral, 5 mg/kg, 2 h after pretreatment, added: single TCE 100 mg/kg): 3.68 ± 0.46 h
C#Cc1ccc2c(c1)C(c1ccccc1F)=NCc1c(C(=O)OCC)ncn1-2  compound remaining (metabolic stability; human, liver microsomes; 15 min, pH 7.4): < 20%
COc1ccc2[nH]cc(CCN(C)C)c2c1  AUC(0-inf) (wild-type FVB/N mouse, serum; intraperitoneal, 2 mg/kg, added: harmaline 5 mg/kg i.p. pretreatment): 1.83 ± 0.25 µM·h
CCCCCc1cc(O)c2c(c1)OC(C)(C)[C@@H]1CCC(C)=C[C@@H]21  unbound fraction (recombinant CYP2C9 microsomes; 0.0016 mg/mL protein, no FABP1): 0.42 ± 0.04
CCN(C(C)=O)c1cccc(-c2ccnc3c(C#N)cnn23)c1  CLint (guinea pig Hartley male, hepatic S9; 1 µM, pH 7.4, added: without NADPH): 6.73 ± 3.63 mL/min/kg

Some of these lines once more:
C=C1C[C@@H]2[C@H](CC[C@]3(C)C(=O)CC[C@@H]23)[C@@]2(C)C=CC(=O)C=C12  median plasma concentration (LC-MS/MS; postmenopausal breast cancer women, plasma; oral, 25 mg/day, 2 h, prior chemotherapy): 6.9 ng/mL
